# Measured values collected from several papers.
# Every numbered part comes from another study and shows a few of its results, in no order. Positions count from the first letter of the parent shown.

# Series 1 — technique: RNA Bind-n-Seq; molecule type: RNA; sample: in vitro; concentration: not given; setting: RNA with constant flanks, ends assumed; reference: input RNA pool; direction: higher = stronger binding
# Target: RING finger protein unkempt homolog, zinc fingers 1-6, GST-SBP tag (UNK, Homo sapiens, UniProt Q9C0B0, residues 30-357)
# All sequences stand within: GGGAGUUCUACAGUCCGACGAUC … CAACAGAGGAUUGAGCAUCA
# Target sequence (chain): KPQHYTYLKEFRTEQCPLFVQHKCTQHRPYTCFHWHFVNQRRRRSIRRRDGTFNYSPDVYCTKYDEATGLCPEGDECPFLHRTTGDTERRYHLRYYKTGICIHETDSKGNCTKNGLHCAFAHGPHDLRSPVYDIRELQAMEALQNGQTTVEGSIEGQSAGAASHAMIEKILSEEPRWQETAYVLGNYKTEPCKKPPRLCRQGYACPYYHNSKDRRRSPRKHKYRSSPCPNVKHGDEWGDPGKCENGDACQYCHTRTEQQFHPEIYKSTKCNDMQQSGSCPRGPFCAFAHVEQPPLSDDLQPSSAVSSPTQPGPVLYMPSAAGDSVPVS
Oligonucleotide,bound/input enrichment
UGCAUGCUGCUGUUUGUGUUUGGCUUUGUUGGCGGGGCGGUGGUCAUUAAUUCUGCUAUCUCCGUAUCUCUCUCUGUUUUGCUGCUUGUGCACUUUUCUAUUUCUACCGGUGUGCCAGCU,0.481 ratio
UAUACUUUGCUGAUCAACAUUCUUCAUAGUGAAGAUCUUGGAAAGGAUGUUGAAUUUGAAGCCGUUGGUGACAGCCCUGAAAAAGUGGGGCCAAAACAAGCUGAAGAUGCUGCCAAAAGC,0.203 ratio
UCAAGUGGACAUGAAGGAAGGGGUGGGGGGAGGGGCGGGUUUUUUUUUUUUCAAUAUAAGCCGCACAUGGUUUAAAUAUGAAUGACUGAACUUGUGAUCUAGUCCUUGUCUGGUAAUUGU,5.66 ratio
GAUCAGAAUGGAAUGACGCCUUUAAUGUGGGCAGCAUAUAGAACACAUAGUGUGGAUCCAACCCGAUUGCUUUUAACAUUCAAUGUUUCAGUUAACCUUGGUGACAAGUAUCACAAAAAC,0.235 ratio
ACUGCCAGGCUGUUUCAGCCAGGAAGGCCAAAAUCAAGAGUGAGAUGUAGAAAGUUGUAAAACCGAAAAAGUGGAGUUGGUGAAUCGGUUGUUCUUUCCUCACAUUUGGAUGAUUGUCAU,0.265 ratio
GCCUGGCUAGUGGAUCAUGUCUAUGCUAUCCGUGAGGCUGCCACCAGCAACCUUAAGAAAUCCGCCGAGAAGUUCGGGAAGGAGUGGGCCCAUGCCACUAUCAUCCCCAAGGUCUUAGCC,0.0771 ratio
GUCCAAACACAAUGUGACUGUUGUUUUUUAUACUGGCAUCGAGCUGUCUUCCCAAUUUAUUCCGAUGAUGUAUAUGAAAAUGCUGUUGAUGCAGCCAGAUUACAUUACAUGUUCAGUGCU,0.126 ratio
GCAGAUGCAGUGGGGGUAACAGUUGUUCUGAUUACUUGCACCUACCGAGGUCAAGAAUUUAUCCGAGUUGGCUACUAUGUAAAUAAUGAAUACACUGAAACAGAAUUAAGGGAAAACCCA,0.23 ratio

# Series 2 — technique: DHFR PCA, deep sequencing; sample: yeast; together with: (+)-ABA 0 µM; reference: wild-type fitted maximum; direction: higher = stronger binding
# Target: ABI1, truncated, D143A, DHFR fusion (Arabidopsis thaliana)
# Setting: methotrexate growth selection, single substitutions
# Starting sequence: PYL1, truncated, DHFR fusion (Arabidopsis thaliana); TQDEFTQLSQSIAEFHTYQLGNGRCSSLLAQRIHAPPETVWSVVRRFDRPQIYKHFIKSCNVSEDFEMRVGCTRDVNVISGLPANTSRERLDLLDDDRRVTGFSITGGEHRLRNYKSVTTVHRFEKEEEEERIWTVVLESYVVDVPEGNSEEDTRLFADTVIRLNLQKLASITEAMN
Substitution,relative binding score [%]
Q167I,-3.32
D95T,-3.6
Q31G,1.44
V43C,3.68
L93M,20.1
R123G,72.6
W41N,-9.17
D95C,-5.09

# Series 3 — target: CCND1, cyclin fold, Cln2 fusion (human); technique: yeast growth competition, sequencing; sample: yeast; setting: weak parent motif; reference: not given; direction: higher = stronger binding
# Starting sequence: CDKN1B docking peptide (human); PSACRNLFGPVDH; partner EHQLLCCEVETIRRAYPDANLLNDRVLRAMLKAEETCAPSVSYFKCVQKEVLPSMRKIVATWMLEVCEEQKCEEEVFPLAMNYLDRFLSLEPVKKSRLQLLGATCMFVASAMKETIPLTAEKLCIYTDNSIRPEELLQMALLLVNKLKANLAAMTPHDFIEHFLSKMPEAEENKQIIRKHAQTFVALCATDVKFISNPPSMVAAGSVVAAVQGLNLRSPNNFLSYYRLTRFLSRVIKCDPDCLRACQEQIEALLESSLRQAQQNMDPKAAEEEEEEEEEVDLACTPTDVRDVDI
Substitution,normalised enrichment score
N6A,0.978
F8Q,0.336
S2P,0.944
N6C,1.75
C4Q,-0.0496
P10T,0.863
F8E,0.159
V11C,0.728

# Single results of other studies
Molecule,target,observed,molecule type,direction,measurement,value
AVDWYQQRI,"HLA class I histocompatibility antigen, A alpha chain, allele A*80:01 (Homo sapiens, UniProt P04439)",peptide-MHC binding,peptide,direction not given,z-score of log IC50,0.38

# A few entries again (series 3):
Substitution,normalised enrichment score
C4Q,-0.0496
N6A,0.978
